Experimental data gathered from unrelated publications.
A part holds a random share of what one study measured.

Study 1
Target: RNA binding protein fox-1 homolog 2, RRM domain, GST-SBP tag (RBFOX2, Homo sapiens, UniProt O43251-10, residues 100-194)
Method: RNA Bind-n-Seq
Molecule type: RNA
Matrix: in vitro
Tested at: 365 nM
Setting: natural RNA segment, single round, ends assumed
Reference: no-protein control
Reading: higher = stronger binding
Endpoint: RBNS enrichment (R)
Construct (chain): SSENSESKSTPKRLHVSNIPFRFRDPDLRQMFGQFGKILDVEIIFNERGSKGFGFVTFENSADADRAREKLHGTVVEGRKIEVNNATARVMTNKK
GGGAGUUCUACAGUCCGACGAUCAUAUUUUUGUCUUGUUCUUCCAAUUGGUAUAUACAACUUUCAGAGCCUCUUGUAUUUGGAAGGCUGGAAGGGCCCAGACUUUGGAAUAGUGUCUUGGUUUCACUGUUUUUUGGAAUUCUCGGGUGCCAA: 0.593
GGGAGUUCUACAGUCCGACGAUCCGUGGCUGCUGAAAAGACACAUGUUCACAUGGAGACAAACCAAGCUGCUCGCUCUCGGCUGUAUGCACCUUCUAGACAGCAGAACGUCUGGUGGGAAGACAUGCCAGUGUUGGAAUUCUCGGGUGCCAA: 0.287
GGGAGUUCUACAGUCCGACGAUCUGUUUUAUUCUUAAAUAAGCAAGCAAAACCUGCACAUUGGAUUCACGUGAGAUGAUAAUGAAAACUUUUAGUUUAAGAGUGAAGGGUUAAGUAACCUAACAGAGCUUUGAUGGAAUUCUCGGGUGCCAA: 0.341
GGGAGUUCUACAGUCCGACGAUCCACAGGUAAGAGAAGCUGCCAGUGACGUUCUGUGGGGCCUGGCUUUGGGCAGCUGCUCAUCAUUGAGGAAGUGGCAGGACUUGGAGGAAGUUAUGUGUGAAUGUUGUCAAUGGAAUUCUCGGGUGCCAA: 5.86
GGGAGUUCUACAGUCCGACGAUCGGUAGUGUCAGGACUAUCCUGUGCUCUAUGACAUUCUAUCUCUAAAAAUGAAGCAACACUUUUUCUGUUUAAUGAGUAUUAUGAGUUGGACAGCAAAUUUUUGUCUUAAUUGGAAUUCUCGGGUGCCAA: 0.327
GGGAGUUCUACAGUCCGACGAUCAGUCCUCUAACACCCCUUGAGACCAAUUCUGCCACUGUAUUUAGAAGCUUUGAGUUAAAGGAUUUGACGACCACAAAAAACCAAAACCAAAACCAAAAACAAAAACCCAGUGGAAUUCUCGGGUGCCAA: 0.361
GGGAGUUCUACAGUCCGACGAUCCAGAAGGCCAGAGCUGGGACAAGCCUUGACCCGUUCUGCAGCCCUUAGAGCCUUCACACGUGAGCACUAGGCCAUCUUAGCAGAACCCCCAUCUGGCAGCACAUGCCAAGUGGAAUUCUCGGGUGCCAA: 7.12
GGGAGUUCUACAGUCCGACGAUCGGUGGGUCUAAUUUGGUAACGGUUUGAUUGUGCCUGGUUUUAUCACCUGUUCAGAUGAGAAGAUUUUUGUCUUUUGUAGCACUGAUAACCAGGAGAAGCCAUUAAAAGCCUGGAAUUCUCGGGUGCCAA: 0.456

Study 2
Target: Sal-like protein 4, full length isoform A (SALL4, Homo sapiens, UniProt Q9UJQ4, residues 1-1053)
Sequence of UniProt Q9UJQ4 (whole entry, looked up): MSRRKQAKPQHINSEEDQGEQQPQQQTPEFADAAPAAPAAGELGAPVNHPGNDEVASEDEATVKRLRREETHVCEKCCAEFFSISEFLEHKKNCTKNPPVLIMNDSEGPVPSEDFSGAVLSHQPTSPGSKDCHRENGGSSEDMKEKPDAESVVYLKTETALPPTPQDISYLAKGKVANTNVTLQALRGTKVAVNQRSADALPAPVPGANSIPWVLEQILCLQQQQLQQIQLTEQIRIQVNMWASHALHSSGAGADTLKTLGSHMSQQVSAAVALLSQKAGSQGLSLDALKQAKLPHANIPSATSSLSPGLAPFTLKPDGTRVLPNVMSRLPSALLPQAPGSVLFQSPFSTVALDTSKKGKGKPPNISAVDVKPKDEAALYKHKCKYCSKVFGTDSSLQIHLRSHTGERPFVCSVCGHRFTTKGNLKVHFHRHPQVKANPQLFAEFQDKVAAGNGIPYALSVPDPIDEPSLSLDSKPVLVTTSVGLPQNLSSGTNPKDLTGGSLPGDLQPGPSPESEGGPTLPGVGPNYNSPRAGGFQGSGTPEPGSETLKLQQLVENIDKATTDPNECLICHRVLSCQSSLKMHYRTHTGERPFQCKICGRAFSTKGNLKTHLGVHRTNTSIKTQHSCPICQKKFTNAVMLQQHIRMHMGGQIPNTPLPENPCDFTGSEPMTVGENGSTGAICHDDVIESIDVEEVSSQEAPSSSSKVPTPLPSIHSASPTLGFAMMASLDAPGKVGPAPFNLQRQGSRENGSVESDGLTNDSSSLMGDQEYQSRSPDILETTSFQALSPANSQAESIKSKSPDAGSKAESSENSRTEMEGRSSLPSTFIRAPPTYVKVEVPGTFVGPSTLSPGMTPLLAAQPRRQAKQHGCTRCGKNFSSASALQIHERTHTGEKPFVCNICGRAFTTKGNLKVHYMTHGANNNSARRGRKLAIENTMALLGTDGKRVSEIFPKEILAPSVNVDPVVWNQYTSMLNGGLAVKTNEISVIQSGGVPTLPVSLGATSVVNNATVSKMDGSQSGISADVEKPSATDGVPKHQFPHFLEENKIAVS
Method: universal PBM
Molecule type: double-stranded DNA, one strand shown
Matrix: in vitro
Tested at: 600 nM
Setting: 8-mer, flanks averaged, mean of replicates
Reading: higher = stronger binding
Endpoint: E-score
GCAGTTCA: -0.0891
GATCCTAC: -0.117
CCTGTCGC: -0.287
AGTACTGA: 0.153
AACTTGGG: -0.0103
GATGTTGC: 0.0173
AGAGTGGA: -0.112

Study 3
Target: Interferon regulatory factor 5, full length, phosphomimetic (IRF5, Homo sapiens, UniProt Q13568-2, residues 1-514, S451D/S453D/S456D/S462D)
Method: protein-binding microarray
Molecule type: double-stranded DNA, one strand shown
Matrix: in vitro
Tested at: 940 nM top
Setting: 60-bp whole probe
Added: salmon DNA 0.4 mg/ml
Reference: random background probes
Reading: higher = stronger binding
Endpoint: fitted relative affinity
Constant ends, left off below: GCCTAGCAC … GTCTTGATTCGCTTGACGCTGCTG
GCCGATCTCAGACTGGAGACGTGCTAG: -0.503 z-score
CTCACCATCATCCTCACTGCGTGCTAG: 1.04 z-score
GACGGTTTCGACACTGGGGAGGTGCTA: 6.71 z-score
GATGGTATCCTACTGCTGACGTGCTAG: 0.0427 z-score
AGCCTTATCCCTAATCTCAGCGTGCTA: 0.716 z-score
CACGGACTGGACTTTCGGGACGTGCTA: 0.639 z-score
GACGATTACGGGTATCGAGACGTGCTA: 0.674 z-score
CACCTTCTTCATCAAGGACAGTGCTAG: 0.564 z-score
TCAGGACTGCTACTGCTTTAGTGCTAG: -0.58 z-score
TTAGATCTCAGTTTCGACTAGTGCTAG: 4.76 z-score
TTAGGTCTCGGAATGGGTTAGTGCTAG: 2.02 z-score

Single results of other studies
PhoQ, residues 284 288 289 292 302 303 ALSMDL  fold induction (PhoP, residues 12 14 15 18 19 LYFRQ (Escherichia coli, UniProt P23836); Sort-seq, refers to: YFP reporter; E. coli; PhoQ-PhoP variant library, added: 10 µM Mg2+; reference: high Mg2+ state, higher = stronger signaling): 3.41

A few entries again (study 3):
CTCACCATCATCCTCACTGCGTGCTAG: 1.04 z-score
CACGGACTGGACTTTCGGGACGTGCTA: 0.639 z-score
